Published values collected from several papers.
Sequence of UniProt Q9H2G2 (whole entry, looked up): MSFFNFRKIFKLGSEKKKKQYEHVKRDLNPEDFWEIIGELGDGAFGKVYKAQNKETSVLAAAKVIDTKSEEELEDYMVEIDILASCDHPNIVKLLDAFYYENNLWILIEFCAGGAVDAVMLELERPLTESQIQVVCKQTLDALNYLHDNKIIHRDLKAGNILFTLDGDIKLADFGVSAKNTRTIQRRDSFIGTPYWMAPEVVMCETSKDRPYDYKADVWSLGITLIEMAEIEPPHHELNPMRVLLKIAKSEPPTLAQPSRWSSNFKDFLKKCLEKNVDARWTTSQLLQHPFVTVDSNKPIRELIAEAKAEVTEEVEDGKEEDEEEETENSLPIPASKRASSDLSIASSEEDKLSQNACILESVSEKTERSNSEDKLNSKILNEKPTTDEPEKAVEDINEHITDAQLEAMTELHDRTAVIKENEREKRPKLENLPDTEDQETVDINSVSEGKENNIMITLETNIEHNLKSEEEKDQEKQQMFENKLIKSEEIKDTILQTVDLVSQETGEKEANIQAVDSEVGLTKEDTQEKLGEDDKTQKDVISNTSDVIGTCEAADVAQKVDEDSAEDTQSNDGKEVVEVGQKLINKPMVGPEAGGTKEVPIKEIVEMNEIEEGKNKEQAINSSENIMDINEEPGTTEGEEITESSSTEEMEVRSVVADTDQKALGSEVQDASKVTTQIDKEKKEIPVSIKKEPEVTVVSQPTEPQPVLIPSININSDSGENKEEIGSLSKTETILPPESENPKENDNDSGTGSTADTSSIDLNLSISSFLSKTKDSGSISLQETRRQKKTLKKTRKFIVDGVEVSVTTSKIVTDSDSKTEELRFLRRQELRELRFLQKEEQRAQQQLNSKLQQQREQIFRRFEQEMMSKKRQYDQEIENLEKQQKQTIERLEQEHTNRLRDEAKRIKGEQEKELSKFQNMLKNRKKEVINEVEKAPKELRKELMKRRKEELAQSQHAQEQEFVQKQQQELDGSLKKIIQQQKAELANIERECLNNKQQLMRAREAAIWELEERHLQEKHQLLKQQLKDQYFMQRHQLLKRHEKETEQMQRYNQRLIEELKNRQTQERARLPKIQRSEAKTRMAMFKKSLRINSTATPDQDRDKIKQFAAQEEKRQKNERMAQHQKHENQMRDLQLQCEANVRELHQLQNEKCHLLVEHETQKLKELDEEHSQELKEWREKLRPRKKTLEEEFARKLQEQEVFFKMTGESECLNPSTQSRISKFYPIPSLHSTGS
Sequence of UniProt Q9C098 (whole entry, looked up): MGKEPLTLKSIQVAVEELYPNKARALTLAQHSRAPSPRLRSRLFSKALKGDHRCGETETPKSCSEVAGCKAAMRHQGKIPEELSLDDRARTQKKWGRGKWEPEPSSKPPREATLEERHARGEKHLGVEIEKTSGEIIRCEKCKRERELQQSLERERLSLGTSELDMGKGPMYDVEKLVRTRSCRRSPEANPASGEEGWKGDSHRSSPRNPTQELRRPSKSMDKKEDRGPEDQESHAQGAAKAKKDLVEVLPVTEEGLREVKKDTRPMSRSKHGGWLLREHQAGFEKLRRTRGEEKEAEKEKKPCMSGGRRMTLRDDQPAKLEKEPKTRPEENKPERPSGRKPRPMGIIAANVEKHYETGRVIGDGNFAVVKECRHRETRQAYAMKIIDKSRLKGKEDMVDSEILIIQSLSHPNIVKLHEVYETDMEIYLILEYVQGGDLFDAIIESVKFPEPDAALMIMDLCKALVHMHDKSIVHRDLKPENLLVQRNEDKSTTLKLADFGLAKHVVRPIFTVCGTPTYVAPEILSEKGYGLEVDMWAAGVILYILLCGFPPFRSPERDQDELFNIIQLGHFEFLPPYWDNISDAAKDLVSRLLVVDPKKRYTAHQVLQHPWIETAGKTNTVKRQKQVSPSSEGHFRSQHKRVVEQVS
Sequence of UniProt Q92945 (whole entry, looked up): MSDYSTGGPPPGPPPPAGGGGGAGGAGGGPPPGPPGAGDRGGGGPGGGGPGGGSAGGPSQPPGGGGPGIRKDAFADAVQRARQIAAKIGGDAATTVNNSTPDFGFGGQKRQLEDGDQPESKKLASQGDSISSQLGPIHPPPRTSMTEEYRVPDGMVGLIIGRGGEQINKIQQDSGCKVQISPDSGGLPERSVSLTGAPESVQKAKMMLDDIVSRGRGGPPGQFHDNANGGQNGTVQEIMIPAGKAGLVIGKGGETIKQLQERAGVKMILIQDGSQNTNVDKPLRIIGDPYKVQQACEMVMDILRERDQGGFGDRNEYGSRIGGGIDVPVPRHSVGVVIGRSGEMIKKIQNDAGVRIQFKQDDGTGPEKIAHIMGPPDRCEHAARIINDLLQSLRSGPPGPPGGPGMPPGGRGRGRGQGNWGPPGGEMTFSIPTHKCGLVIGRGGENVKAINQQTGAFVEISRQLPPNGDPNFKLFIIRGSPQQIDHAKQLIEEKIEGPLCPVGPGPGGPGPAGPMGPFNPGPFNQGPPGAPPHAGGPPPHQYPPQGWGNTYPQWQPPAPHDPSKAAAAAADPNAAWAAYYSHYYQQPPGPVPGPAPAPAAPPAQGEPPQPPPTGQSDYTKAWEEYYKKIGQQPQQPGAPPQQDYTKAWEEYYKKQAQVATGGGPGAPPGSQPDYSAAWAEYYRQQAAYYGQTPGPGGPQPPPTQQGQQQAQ
Sequence of UniProt Q4J6C6 (whole entry, looked up): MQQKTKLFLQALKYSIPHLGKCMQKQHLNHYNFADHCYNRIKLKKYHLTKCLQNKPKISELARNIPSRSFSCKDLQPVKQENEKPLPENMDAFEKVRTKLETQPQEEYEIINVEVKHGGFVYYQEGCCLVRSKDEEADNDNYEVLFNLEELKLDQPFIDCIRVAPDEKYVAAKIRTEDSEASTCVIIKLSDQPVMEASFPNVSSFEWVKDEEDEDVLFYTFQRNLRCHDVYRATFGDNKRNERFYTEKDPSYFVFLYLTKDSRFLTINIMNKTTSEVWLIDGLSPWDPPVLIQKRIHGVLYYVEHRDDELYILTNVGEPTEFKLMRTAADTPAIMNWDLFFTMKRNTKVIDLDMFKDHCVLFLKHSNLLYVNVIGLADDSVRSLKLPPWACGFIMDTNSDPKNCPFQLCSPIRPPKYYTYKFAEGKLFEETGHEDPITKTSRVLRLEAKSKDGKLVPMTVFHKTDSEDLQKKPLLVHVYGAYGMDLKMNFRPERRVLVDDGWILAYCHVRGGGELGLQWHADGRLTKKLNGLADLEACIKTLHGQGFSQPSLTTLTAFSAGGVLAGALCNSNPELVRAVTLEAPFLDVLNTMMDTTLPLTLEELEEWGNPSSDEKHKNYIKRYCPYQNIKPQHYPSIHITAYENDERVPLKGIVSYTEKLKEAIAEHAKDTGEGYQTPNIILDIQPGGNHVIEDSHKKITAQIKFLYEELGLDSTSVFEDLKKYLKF
Sequence of UniProt Q5XI64 (whole entry, looked up): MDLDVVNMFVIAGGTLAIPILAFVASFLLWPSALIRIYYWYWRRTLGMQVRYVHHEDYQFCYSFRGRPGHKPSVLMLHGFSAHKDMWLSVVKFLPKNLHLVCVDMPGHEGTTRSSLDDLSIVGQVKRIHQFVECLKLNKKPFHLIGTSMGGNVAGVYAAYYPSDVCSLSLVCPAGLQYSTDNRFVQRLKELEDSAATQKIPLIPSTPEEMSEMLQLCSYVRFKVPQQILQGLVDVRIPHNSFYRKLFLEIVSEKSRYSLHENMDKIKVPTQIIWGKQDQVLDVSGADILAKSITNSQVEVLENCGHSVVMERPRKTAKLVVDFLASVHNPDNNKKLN
Sequence of UniProt Q9BZJ7 (whole entry, looked up): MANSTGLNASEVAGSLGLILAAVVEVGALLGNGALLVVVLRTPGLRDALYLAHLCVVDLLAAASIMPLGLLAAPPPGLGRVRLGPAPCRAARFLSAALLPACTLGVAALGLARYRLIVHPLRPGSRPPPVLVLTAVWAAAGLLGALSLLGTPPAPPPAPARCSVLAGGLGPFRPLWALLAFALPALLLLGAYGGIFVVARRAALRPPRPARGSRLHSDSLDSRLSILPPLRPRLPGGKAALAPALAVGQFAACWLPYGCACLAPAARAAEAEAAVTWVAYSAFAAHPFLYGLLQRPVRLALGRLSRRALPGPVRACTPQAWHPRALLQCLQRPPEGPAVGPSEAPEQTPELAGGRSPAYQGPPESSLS
Sequence of UniProt P25103 (whole entry, looked up): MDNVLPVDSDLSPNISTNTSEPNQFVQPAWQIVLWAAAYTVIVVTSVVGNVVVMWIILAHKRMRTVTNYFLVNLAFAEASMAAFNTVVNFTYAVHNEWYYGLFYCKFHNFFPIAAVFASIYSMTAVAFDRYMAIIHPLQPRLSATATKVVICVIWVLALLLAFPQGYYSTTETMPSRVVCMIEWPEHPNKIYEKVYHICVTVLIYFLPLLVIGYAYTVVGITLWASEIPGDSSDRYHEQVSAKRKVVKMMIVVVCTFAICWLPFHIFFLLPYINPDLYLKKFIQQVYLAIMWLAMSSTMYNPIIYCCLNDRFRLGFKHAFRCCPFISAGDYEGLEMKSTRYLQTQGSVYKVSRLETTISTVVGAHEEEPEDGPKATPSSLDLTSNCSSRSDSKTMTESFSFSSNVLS
Sequence of UniProt P25021 (whole entry, looked up): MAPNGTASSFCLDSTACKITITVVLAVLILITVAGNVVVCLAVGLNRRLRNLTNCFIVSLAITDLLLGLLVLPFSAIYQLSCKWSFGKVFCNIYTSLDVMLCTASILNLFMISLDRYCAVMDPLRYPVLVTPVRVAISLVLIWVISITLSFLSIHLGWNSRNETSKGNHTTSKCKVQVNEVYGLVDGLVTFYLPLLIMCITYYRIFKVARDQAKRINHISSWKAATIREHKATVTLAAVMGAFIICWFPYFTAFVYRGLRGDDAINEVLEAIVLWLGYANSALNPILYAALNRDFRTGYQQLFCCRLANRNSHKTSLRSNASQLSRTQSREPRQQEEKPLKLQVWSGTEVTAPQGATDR

With `O=C(Nc1cccnn1)N1CCC(=Cc2cccc(Oc3ccc(C(F)(F)F)cn3)c2)CC1` the inhibition was 11% (GABAB1B receptor, human; binding; 10 µM, added: [3H]CGP-54626).
The remaining binding of `[2H]c1c([2H])c([C@]2([2H])CCCN2C(=O)C(C)(C)Oc2ccc3cn[nH]c3c2)c([2H])c([2H])c1C([2H])([2H])[2H]` is reported as 82% (STE20-like serine/threonine-protein kinase (SLK, Homo sapiens, UniProt Q9H2G2); KINOMEscan; 1 µM; reference: DMSO control).
With `CN(C(=O)n1cnc(-c2ccc[n+]([O-])c2)c1)C1CCCCC1` the inhibition was 27.9% (Monoacylglycerol lipase ABHD6 (Abhd6, Rattus norvegicus, UniProt Q5XI64); probe labelling, inhibitor, competitive ABPP; rat brain membrane fraction; 10 µM, added: azido-FP probe).
`CN(CCN1CCC(OC(=O)Nc2ccccc2-c2ccccc2)CC1)C(=O)c1ccc(CN2CCC(C(N)=O)CC2)cc1` gave an inhibition of 10% (ATP-binding cassette sub-family C member 8 (Abcc8, Rattus norvegicus, UniProt Q09429); radioligand binding; 1 µM, added: [3H]glibenclamide 0.1 nM).
`O=C(Nc1cnccc1Cl)N1CCN(Cc2ccc3c(c2)OC(F)(F)O3)CC1` gave an inhibition of 5% (GABAB1B receptor, human; binding; 50 µM, added: [3H]CGP-54626).
`COc1ccc(N2C(=O)N(c3c(C)cccc3Cl)Cc3cnc(Nc4ccc(C5CCN(C)CC5)cc4OC)nc32)nc1` has an inhibition of 3% (Casein kinase I isoform gamma-2 (CSNK1G2, Homo sapiens, UniProt P78368); kinase activity, inhibitor; 0.5 µM, kinase CK1-GAMMA2).
`COc1cc(Nc2ncc(F)c(Nc3ccc4c(n3)NC(=O)C(C)(C)O4)n2)cc(OC)c1OC` gave an inhibition of 96% (Serine/threonine-protein kinase DCLK3 (DCLK3, Homo sapiens, UniProt Q9C098); binding, KINOMEscan; 10 µM, DCAMKL3 kinase).
For `COc1cc2c(NC3CCN(C)CC3)cc(-c3ccc(C)o3)nc2cc1OCCCN1CCCC1`, the inhibition was 98.8% (DNA (cytosine-5)-methyltransferase 1 (DNMT1, Homo sapiens, UniProt P26358); enzyme activity; 100000 nM).
The inhibition of `CN1CCN(c2cc(-c3ccncc3)c(-c3ccc4ccccc4c3)nn2)CC1` is reported as -13.6% (Substance-P receptor (TACR1, Homo sapiens, UniProt P25103); antagonist, FLIPR; 10 µM).
For `C[C@H]1CN(c2n[nH]c3nc(N[C@H]4CC[C@H](NS(=O)(=O)CCC(F)(F)F)CC4)ncc23)CCO1`, the relative abundance was 1.15 (Far upstream element-binding protein 2 (KHSRP, Homo sapiens, UniProt Q92945); inhibitor, Kinobeads competition profiling; 0.16 µM; reference: vehicle).
For `Cn1cccc1-c1cccnc1`, the inhibition was -3.72% (Histamine H2 receptor (HRH2, Homo sapiens, UniProt P25021); binding; 50 µM).
The median ratio of `O=C(c1ccc(Cl)cc1)N1CCN2C(=O)N(OC(=O)N3CCOc4ccccc43)C(=O)C2C1` (stereo not shown) is reported as 1.09 (PREPL (Homo sapiens, UniProt Q4J6C6); enzyme activity, inhibitor, MS-based ABPP; SW-620 in situ; 10 µM, 2 h, 37 °C; reference: compound over DMSO, lower = stronger inhibition).
`Oc1ccc2c3c1O[C@H]1[C@@H](O)CC[C@@]4(O)[C@@H](C2)N(CC2CCC2)CC[C@]314`: “log2 fold change” 0.494 (G-protein coupled receptor 62 (GPR62, Homo sapiens, UniProt Q9BZJ7); β-arrestin recruitment, TANGO luminescence, measured: GPR62; concentration not given; reference: basal luminescence).

For quick reference, copied from above:
For `C[C@H]1CN(c2n[nH]c3nc(N[C@H]4CC[C@H](NS(=O)(=O)CCC(F)(F)F)CC4)ncc23)CCO1`, the relative abundance was 1.15 (Far upstream element-binding protein 2 (KHSRP, Homo sapiens, UniProt Q92945); inhibitor, Kinobeads competition profiling; 0.16 µM; reference: vehicle).
`CN(CCN1CCC(OC(=O)Nc2ccccc2-c2ccccc2)CC1)C(=O)c1ccc(CN2CCC(C(N)=O)CC2)cc1` gave an inhibition of 10% (ATP-binding cassette sub-family C member 8 (Abcc8, Rattus norvegicus, UniProt Q09429); radioligand binding; 1 µM, added: [3H]glibenclamide 0.1 nM).
